# Assay results gathered from unrelated publications.
# Numbers after ± are the reported error.
Substance,cell line,test,test system,setting,scale,quantity,result
pneumocandin K,human erythrocytes,,,"102.4 µg/mL, 1 h, 37 °C",relative to: Tween 20,hemolysis,> 50%
O=C(c1cc(Cc2n[nH]c(=O)c3ccccc23)ccc1F)N1CCN(C(=O)C2CC2)CC1,SK-BR-3 cells,cytotoxicity,,24 h,relative to: vehicle,lowest significantly active concentration,10 µM
CC[C@H](C)[C@H](NC(=O)[C@H](Cc1ccccc1)NC(=O)[C@H](CCC(=O)O)NC(=O)[C@H](CCCCNC(=O)COCCOCCNC(=O)COCCOCCNC(=O)CC[C@H](NC(=O)CCCCCCCCCCCCCCCCC(=O)O)C(=O)O)NC(=O)[C@H](C)NC(=O)[C@H](C)NC(=O)[C@H](CCC(N)=O)NC(=O)CNC(=O)[C@H](CCC(=O)O)NC(=O)[C@H](CC(C)C)NC(=O)[C@H](Cc1ccc(O)cc1)NC(=O)[C@H](CO)NC(=O)[C@H](CO)NC(=O)[C@@H](NC(=O)[C@H](CC(=O)O)NC(=O)[C@H](CO)NC(=O)[C@@H](NC(=O)[C@H](Cc1ccccc1)NC(=O)[C@@H](NC(=O)CNC(=O)[C@H](CCC(=O)O)NC(=O)C(C)(C)NC(=O)[C@@H](N)Cc1cnc[nH]1)[C@@H](C)O)[C@@H](C)O)C(C)C)C(=O)N[C@@H](C)C(=O)N[C@@H](Cc1c[nH]c2ccccc12)C(=O)N[C@@H](CC(C)C)C(=O)N[C@H](C(=O)N[C@@H](CCCNC(=N)N)C(=O)NCC(=O)N[C@@H](CCCNC(=N)N)C(=O)NCC(=O)O)C(C)C,human PBMC,T-cell proliferation,,"30 µg/mL, stimulation index above 2.0",,responding donors,9.9%
CC(C)C[C@H](NC(=O)[C@H](C)NC(=O)[C@H](CCCCN)NC(=O)[C@H](CCCNC(=N)N)NC(=O)[C@H](Cc1ccc(O)cc1)NC(=O)[C@H](CC(C)C)NC(=O)[C@H](CCCNC(=N)N)NC(=O)[C@H](C)NC(=O)[C@H](C)NC(=O)[C@H](CC(C)C)NC(=O)[C@H](CCCCN)NC(=O)[C@H](C)NC(=O)[C@@H](N)Cc1ccccc1)C(=O)N[C@@H](C)C(=O)N[C@@H](CCCNC(=N)N)C(=O)N[C@@H](CCC(N)=O)C(=O)N[C@@H](CC(C)C)C(=O)NCC(=O)N[C@H](C(=O)N[C@@H](C)C(=O)N[C@@H](C)C(N)=O)C(C)C,human pleural mesothelial cells (CRL-9444),LIVE/DEAD calcein-AM/EthD-1,,"24 h, 37 °C",relative to: untreated,maximum non-lethal concentration,300 µM
COc1cccc2c1C(=O)c1c(O)c3c(c(O)c1C2=O)C[C@@](O)(C(=O)CO)C[C@@H]3O[C@H]1C[C@H](N)[C@H](O)[C@H](C)O1,MCF7/ADR,flow cytometry,,"10 µg/mL equivalent, 4 h loading, 2 h efflux, 37 °C",,drug efflux,58.3%
Cc1[nH]ccc2c1[nH]c1cc(=O)ccc12,H4 cells,"nuclear area and membrane integrity, high content imaging",,72 h,,lowest cytotoxic concentration,> 10 µM
N/C(=N\O)c1cc(O)c(O)c(O)c1,"ARPE-19, uninfected","cytotoxicity, CellTiter-Glo",,14 d,,TD50,222 ± 13 µM
CCOCN(C(=O)CCl)c1c(C)cccc1CC,HEK293,neutral red uptake,,"0.22 µg/mL, 24 h, compound pretreated 2 h at 23 °C with UV 365 nm",relative to: 23 °C without UV,cell viability increase,~48%
C=CC[C@H](NC(=O)CCl)C(=O)N[C@@H](Cc1c[nH]c2ccccc12)C(=O)NCc1ccccc1,Vero,"cell morphology, microscopy",,5 (unit not given),,minimum cytotoxic concentration,100 µM
CC[C@H](C)[C@H](NC(=O)[C@H](CC(=O)O)NC(=O)[C@H](Cc1ccccc1)NC(=O)[C@H](CC(C)C)NC(=O)CN)C(=O)N[C@H](C(=O)N[C@@H](CCCCN)C(=O)N[C@@H](CCCCN)C(=O)N[C@H](C(=O)N[C@H](C(=O)N[C@@H](CCCCN)C(=O)N[C@@H](CC(C)C)C(=O)N[C@@H](CC(C)C)C(=O)N[C@@H](CCCCN)C(N)=O)C(C)C)C(C)C)C(C)C,human erythrocytes,,,"1 h, 37 °C, hemolysis ≤5%",,minimal hemolytic concentration,32 µM
Cc1cnc2cc(C)c3c(nc(N)n3C)c2n1,rat primary midbrain neurons,"dopaminergic neuron loss, item: TH+ over MAP2+ neurons",,24 h,,lowest toxic concentration,100 nM
CC(C)C[C@H](NP(=O)(OCCOCn1cnc2c(=O)[nH]c(N)nc21)Oc1ccccc1)C(=O)OCc1ccccc1 (stereo partly drawn),HEL,altered cell morphology,,,,minimal cytotoxic concentration,> 100 µM
COc1ccccc1/C=N/N=C1\C(=O)Nc2ccccc21,HUVEC,MTT,,"24 and 48 h, 50% cell death",,cytotoxic concentration,> 100 µg/mL
CCOC(=O)[C@@H](NP(=O)(OCCOCn1cnc2c(=O)[nH]c(N)nc21)Oc1cccc2ccccc12)C(C)C (stereo partly drawn),HEL,altered cell morphology,,,,minimal cytotoxic concentration,> 100 µM
CCNc1nc(Cl)nc(NCC)n1,HEK293,neutral red uptake,,24 h,,LD50,1.44 µg/mL
Clc1cc2c(cc1Cl)Oc1cc(Cl)c(Cl)cc1O2,primary human hepatocytes,item: CYP1A1,human,"5 nM, 24 h",relative to: vehicle,mRNA fold induction,70.5 ± 1.8
O=C(NCc1c(F)cccc1Cl)c1cn(Cc2ccc(F)cc2)cc(O)c1=O,HFF,trypan blue exclusion,,10 or 50 µM,,viability,> 90%
CN[C@H](C(=O)N[C@H](C(=O)N(C)[C@H](c1noc(=O)[nH]1)C(C)C)C(C)C)C(C)(C)c1ccccc1,HeLa,"cell growth or viability, MTT",,,,IC50,> 10000 nM
CN1C(=O)[C@]23SS[C@@]1(C)C(=O)N2[C@H]1Nc2ccccc2[C@@]1([C@@]12c4ccccc4N[C@@H]1N1C(=O)[C@@]4(C)SS[C@]1(C(=O)N4C)[C@H]2O)[C@@H]3O,SF-268,"cell growth or viability, SRB",,,,IC50,250 nM
Nc1ccn([C@@H]2O[C@H](CO)[C@@H](O)C2(F)F)c(=O)n1,Vero,"cell morphology, microscopy",,5 (unit not given),,minimum cytotoxic concentration,0.008 µM
CON=C(N)c1ccc(-c2ccc(-c3ccc(C(N)=NOC)cc3)o2)cc1,KLE,cytotoxicity,,"72 h, without α-naphthoflavone",,IC50,54900 ± 1000 nM
CCN(CC)N=O,HepaRG 2D,cell viability,,"concentration not given, 24 h",relative to: vehicle,ATP level,73.3%
C=C(C[C@H](N)C(=O)O)C(=O)NC1CC1,SK-BR-3 cells,cytotoxicity,,24 h,relative to: vehicle,lowest significantly active concentration,100 µM
CCCCN(CCCC)N=O,HepaRG 2D,cell viability,,"concentration not given, 24 h",relative to: vehicle,ATP level,78.5%
CC[C@@]12SS[C@]3(C(=O)N1C)[C@@H](O)[C@]1(C45c6ccccc6N[C@@H]4N4C(=O)[C@@]6(CC)SS[C@@]4(C(=O)N6C)[C@H]5O)c4ccccc4N[C@@H]1N3C2=O (stereo partly drawn),HT-29,"cell growth or viability, SRB",,,,IC50,40 nM
Clc1ccc(-c2cc(Cl)c(Cl)c(Cl)c2)cc1Cl,primary hepatocytes,item: Cyp1a1 mRNA,,,relative to: mouse over human,potency ratio,~16 fold
COC(=O)[C@@H](NP(=O)(OCCOCn1cnc2c(=O)[nH]c(N)nc21)Oc1cccc2ccccc12)C(C)C (stereo partly drawn),HEL,altered cell morphology,,,,minimal cytotoxic concentration,> 100 µM
CN(C)N=O,HepaRG 2D,"micronucleus formation, flow cytometry",,,,lowest effective concentration,7500 µM
CC(O)[C@@]12SS[C@]3(C(=O)N1C)[C@@H](O)[C@]1([C@@]45c6ccccc6N[C@@H]4N4C(=O)[C@]6(C)SS[C@]4(C(=O)N6C)[C@H]5O)c4ccccc4N[C@@H]1N3C2=O (stereo partly drawn),HT-29,"cell growth or viability, SRB",,,,IC50,10 nM
Nc1nc2c(ncn2COCCOP(=O)(Oc2ccccc2)N2CCC[C@H]2C(=O)OCc2ccccc2)c(=O)[nH]1 (stereo partly drawn),HEL,altered cell morphology,,,,minimal cytotoxic concentration,> 100 µM
CC(C)C[C@H](NC(=O)[C@H](CC(C)C)NC(=O)[C@H](CCCCN)NC(=O)[C@H](CC(C)C)NC(=O)[C@H](CC(C)C)NC(=O)[C@H](CCCCN)NC(=O)[C@H](CCCCN)NC(=O)[C@H](CC(C)C)NC(=O)[C@H](CC(C)C)NC(=O)[C@H](CCCCN)NC(=O)[C@H](CC(C)C)NC(=O)[C@H](CC(C)C)NC(=O)[C@@H](N)CCCCN)C(=O)N[C@@H](CCCCN)C(N)=O,human erythrocytes,,,"1 h, 37 °C, hemolysis ≤5%",,minimal hemolytic concentration,8 µM
CC(C)N(N=O)C(C)C,HepaRG 2D,cell viability,,"concentration not given, 24 h",relative to: vehicle,ATP level,82.3%
CC[C@H](C)[C@H](NC(=O)[C@H](CCCCN)NC(=O)[C@H](CCC(=O)O)NC(=O)[C@H](CCCCN)NC(=O)[C@H](CO)NC(=O)[C@H](CCCCN)NC(=O)[C@H](CCCNC(=N)N)NC(=O)[C@H](Cc1ccccc1)NC(=O)[C@H](Cc1ccccc1)NC(=O)[C@H](CC(=O)O)NC(=O)CNC(=O)[C@H](CC(C)C)NC(=O)[C@@H](N)CC(C)C)C(=O)NCC(=O)N[C@@H](CCCCN)C(=O)N[C@@H](CCC(=O)O)C(=O)N[C@@H](Cc1ccccc1)C(=O)N[C@@H](CCCCN)C(=O)N[C@@H](CCCNC(=N)N)C(=O)N[C@H](C(=O)N[C@H](C(=O)N[C@@H](CCC(N)=O)C(=O)N[C@@H](CCCNC(=N)N)C(=O)N[C@H](C(=O)N[C@@H](CCCCN)C(=O)N[C@@H](CC(=O)O)C(=O)N[C@@H](Cc1ccccc1)C(=O)N[C@@H](CC(C)C)C(=O)N[C@@H](CCCNC(=N)N)C(=O)N[C@@H](CC(N)=O)C(=O)N[C@@H](CC(C)C)C(=O)N[C@H](C(=O)N1CCC[C@H]1C(=O)N[C@@H](CCCNC(=N)N)C(=O)N[C@H](C(=O)N[C@@H](CCC(=O)O)C(=O)N[C@@H](CO)C(=O)O)[C@@H](C)O)C(C)C)[C@@H](C)CC)C(C)C)[C@@H](C)CC,rat erythrocytes,,,"concentration not given, 30 min, pH 7.4, 37 °C, with: Escherichia coli K-235 LPS, 1:5 w/w",,hemolysis,inhibited
CC[C@@]12SS[C@]3(C(=O)N1C)[C@@H](O)C1(C45c6ccccc6N[C@@H]4N4C(=O)[C@]6([C@@H](C)O)SS[C@]4(C(=O)N6C)[C@H]5O)c4ccccc4N[C@@H]1N3C2=O (stereo partly drawn),SF-268,"cell growth or viability, SRB",,,,IC50,380 nM
CN(CCCC(=O)O)N=O,"HepaRG, 3D spheroids",,,"highest tested concentration, 24 h, plus 5 days, with: hEGF 100 ng/mL",relative to: vehicle,γH2A.X fold increase,1.5 to 1.8 fold
H-HGLASTLTRWAHYNALIRAFGGG-NH2 (C-amide),SH-SY5Y,fluorimetry,,"5 µM, 2 h, serum-free",,internalized peptide,80 to 90%

# For quick reference, copied from above:
Substance,cell line,test,test system,setting,scale,quantity,result
Cc1[nH]ccc2c1[nH]c1cc(=O)ccc12,H4 cells,"nuclear area and membrane integrity, high content imaging",,72 h,,lowest cytotoxic concentration,> 10 µM
CCOC(=O)[C@@H](NP(=O)(OCCOCn1cnc2c(=O)[nH]c(N)nc21)Oc1cccc2ccccc12)C(C)C (stereo partly drawn),HEL,altered cell morphology,,,,minimal cytotoxic concentration,> 100 µM
CC[C@H](C)[C@H](NC(=O)[C@H](CCCCN)NC(=O)[C@H](CCC(=O)O)NC(=O)[C@H](CCCCN)NC(=O)[C@H](CO)NC(=O)[C@H](CCCCN)NC(=O)[C@H](CCCNC(=N)N)NC(=O)[C@H](Cc1ccccc1)NC(=O)[C@H](Cc1ccccc1)NC(=O)[C@H](CC(=O)O)NC(=O)CNC(=O)[C@H](CC(C)C)NC(=O)[C@@H](N)CC(C)C)C(=O)NCC(=O)N[C@@H](CCCCN)C(=O)N[C@@H](CCC(=O)O)C(=O)N[C@@H](Cc1ccccc1)C(=O)N[C@@H](CCCCN)C(=O)N[C@@H](CCCNC(=N)N)C(=O)N[C@H](C(=O)N[C@H](C(=O)N[C@@H](CCC(N)=O)C(=O)N[C@@H](CCCNC(=N)N)C(=O)N[C@H](C(=O)N[C@@H](CCCCN)C(=O)N[C@@H](CC(=O)O)C(=O)N[C@@H](Cc1ccccc1)C(=O)N[C@@H](CC(C)C)C(=O)N[C@@H](CCCNC(=N)N)C(=O)N[C@@H](CC(N)=O)C(=O)N[C@@H](CC(C)C)C(=O)N[C@H](C(=O)N1CCC[C@H]1C(=O)N[C@@H](CCCNC(=N)N)C(=O)N[C@H](C(=O)N[C@@H](CCC(=O)O)C(=O)N[C@@H](CO)C(=O)O)[C@@H](C)O)C(C)C)[C@@H](C)CC)C(C)C)[C@@H](C)CC,rat erythrocytes,,,"concentration not given, 30 min, pH 7.4, 37 °C, with: Escherichia coli K-235 LPS, 1:5 w/w",,hemolysis,inhibited
CON=C(N)c1ccc(-c2ccc(-c3ccc(C(N)=NOC)cc3)o2)cc1,KLE,cytotoxicity,,"72 h, without α-naphthoflavone",,IC50,54900 ± 1000 nM
C=C(C[C@H](N)C(=O)O)C(=O)NC1CC1,SK-BR-3 cells,cytotoxicity,,24 h,relative to: vehicle,lowest significantly active concentration,100 µM
